Published values pooled from the literature.
Each numbered part is a random draw from the data of one study; scales do not carry over between parts.

Sample 1 — method: protein-binding microarray; form: double-stranded DNA, one strand shown; medium: in vitro; tested at: 2200 nM top; setting: 60-bp whole probe; with: salmon DNA 0.4 mg/ml; relative to: random background probes; reading: higher = stronger binding; all sequences stand within: GCCTAGCAC … GTCTTGATTCGCTTGACGCTGCTG
Target: Interferon regulatory factor 7, full length, phosphomimetic (IRF7, Homo sapiens, UniProt Q92985, residues 1-503, S471D/S472D/S475D/S476D/S477D/S483D/S484D/S487D)
Construct (chain): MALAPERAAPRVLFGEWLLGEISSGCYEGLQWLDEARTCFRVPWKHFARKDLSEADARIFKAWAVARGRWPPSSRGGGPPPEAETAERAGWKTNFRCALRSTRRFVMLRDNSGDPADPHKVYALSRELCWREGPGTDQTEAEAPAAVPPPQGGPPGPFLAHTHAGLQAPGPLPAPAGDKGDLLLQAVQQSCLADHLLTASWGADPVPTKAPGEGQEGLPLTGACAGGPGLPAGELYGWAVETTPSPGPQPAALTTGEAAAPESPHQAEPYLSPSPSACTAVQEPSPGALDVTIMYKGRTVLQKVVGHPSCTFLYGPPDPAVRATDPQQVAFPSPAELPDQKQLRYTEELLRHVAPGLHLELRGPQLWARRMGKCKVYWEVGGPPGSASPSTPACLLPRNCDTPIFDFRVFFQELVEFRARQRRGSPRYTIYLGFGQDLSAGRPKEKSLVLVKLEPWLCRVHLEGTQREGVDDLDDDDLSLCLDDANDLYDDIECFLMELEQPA
Oligonucleotide | fitted relative affinity [z-score]
GACGAACTGGCGTTTCGAGACGTGCTA | 0.351
TTAGATTACGGGACTGGATTAGTGCTA | -0.262
CTGTGTTTCCTTGTACGTCGGTGCTAG | 2.36
TCAACTTTCCACTTGTCACTGTGCTAG | 6.69
GACGAACCGAGTCTCGAGACGTGCTAG | 0.442
GACGGTTTCGGTATCAGGACGTGCTAG | 7.26
TTAGATATCAGTCTCGATGAGTGCTAG | 0.007
GACGGACTGCTTTTCCTTACGTGCTAG | 1.06
TTAGATTTCGGGACTGTATTAGTGCTA | 1.05
TTAGAACTGAGACTGGAGTAGTGCTAG | -0.715
GACGGTTTCGGACTGCGGACGTGCTAG | 4.2
TTAGGTATCGACGCTGGGTTAGTGCTA | -0.283
GACGGTTTCCTCTCCCTGACGTGCTAG | 2.34
GACGGACTGCTCATCCTGACGTGCTAG | 0.311
GCTTCTACACAGAGCATGGGGTGCTAG | 0.353
TTAGGTCTCCTTTTGCTTTAGTGCTAG | 1.87
TTAGATTTCGGACTGGGTTAGTGCTAG | 1.25
GACGGTTTCGGGCCTGGGGACGTGCTA | 2.2
GACGGTTTCGAATTTCGGGACGTGCTA | 5.12
TTAGAACTGGGGTATCGATGAGTGCTA | -0.286
TTAGATTTCAGTCTCGATTTGTGCTAG | 1.99
TTTGAACTGGGGTTTCGATTAGTGCTA | 2.52
TCATGTTTTAAATTCTAACTGTGCTAG | 0.932
TCAAGTTTGTAAATCTTACTGTGCTAG | -0.0269
TTGTATTTGTCCCTATTTAAGTGCTAG | 1.93

Sample 2 — method: RNA Bind-n-Seq; form: RNA; medium: in vitro; tested at: not given; relative to: input RNA pool; reading: higher = stronger binding
Target: RING finger protein unkempt homolog, zinc fingers 1-6, GST-SBP tag (UNK, Homo sapiens, UniProt Q9C0B0, residues 30-357)
Chain of UniProt Q9C0B0 (30-357, looked up): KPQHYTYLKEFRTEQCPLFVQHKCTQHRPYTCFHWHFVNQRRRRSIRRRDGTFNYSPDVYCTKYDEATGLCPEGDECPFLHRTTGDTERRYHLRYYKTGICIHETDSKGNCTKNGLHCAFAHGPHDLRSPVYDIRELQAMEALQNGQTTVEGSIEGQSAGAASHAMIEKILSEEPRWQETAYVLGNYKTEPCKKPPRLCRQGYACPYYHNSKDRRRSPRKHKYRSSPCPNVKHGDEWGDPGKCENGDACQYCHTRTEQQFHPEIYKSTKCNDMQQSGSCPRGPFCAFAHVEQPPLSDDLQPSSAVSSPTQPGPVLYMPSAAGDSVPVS
Setting: RNA with constant flanks, human and mouse sites, ends assumed
All sequences stand within: GGGAGUUCUACAGUCCGACGAUC … CAACAGAGGAUUGAGCAUCA
Oligonucleotide | bound/input enrichment [ratio]
CUGAAGCCCAUGUUGCAGCGGGACUUUAUCACUGCUUUACCAGAGCAAGGCUUAGAUCACAUAGCAGAAAACAUUCUCUCCUACCUGGAUGCCAGGUCUCUGUGUGCAGCAGAGCUGGUG | 0.171
UUAAGACCCUCGCUCCUGCUGCUAACACAGACCGUUAACCAGAGGAGGCUUCCAUCGUAGCCAUAAUGCCUGUCGUCGUACAGCUCAGUAGCCCGUUCUCUUUCACAGUUCAACGUGUAC | 0.299
CUAUUGGUCUUAGACGAGUUCAAAAUGGAGAAAAGAAUCAGCAGAAUGUUCUAUAUAAUGACUUUUCUGUUUCUAACCUUGUGGGGCCCCUACCUGGUGGCCUGUUAUUGGAGAGUUUUU | 0.151
ACUUCCGGGAGGGGGCUUGGGUCCCUGGUGUGUGUGCUACGGGGUGCAGACUGUGUUUAAAAUAGCAGGAACGCCAUGUCCCGGGGUUCCAGCGCCGGUUUUGACCGUCACAUUACUAUC | 0.112
AUUGUGGAUAAAGUUUCCAGUGUAUCCAGUUCAGCACUGGUAUCUUCCCUGCACAUGAUGAAGAUAAGCUAUGAUGUGGUUAAGCGCUGGAUCAAUGAAGCCCAAGAAGCUGCAUCAAGU | 0.115
GUUAUUCUCGUUCAAGUUAAUCCAGGUGAGACUUUCACAAUAAGAGCAGAGGAUGGAACACUUCAGUGCAUUCAAGGACCUGCUGAAGUUCCCAUGAUGUCACCCAAUGGAUCCAUUCCU | 0.169
CGGAAUCUGCUGGCCCUUCGUCAGAUUGCCCAGAGGACCAUCAGCACCACUUCACGAAGGCAUUUUGAAAACAAGGUUCCAGAGAAACAAAAGCUGUUUCAGGAGGAUAAUGGGAUGCCA | 0.221
AAAUUAUGUACUGCAAAAAUUUUUUUAAAUCUUCCGCCUUAAUACUUCAUUUUUGUUUUUAAUUUCUGAAUGGCCCAGGUCUGAGGCCUCCCUUUUUUUUGUCCCCCCAACUUGAUGUAU | 3.6
UCACCUGGGAGUUGGGGUCCUGCCCACCUGGAGUUUAGCACGCUGGUCGCUCACUUUGCUUUGGUCUGCACACCUGGUGUGUGCAUGUGUAUACUGCUUGUGCCAUCUGUGUACCCCUCU | 0.165
UUCUUCUUCCAGGGUCUGAUCCCCUUUGGUAUAGAUAAGGAAGUCCCGGUUGUAACUCUUUGAAUUGAAGCCAUUGAUUUGCAUAGUGCCUUAUGACUUUAAAAGAAGUUCUCAUUUGAA | 0.104
UCUUUAGAUCGGACUGCCCCACCAGAUGGUAGAGCUAGUGCUGAUCAUAUUGUUAUUUCCUUAUCUGAUAUGGCAUCUUCUAUCAUAGAAUCUGUAGUACCUAAACCUGAAGGGCCAGUU | 1.27

Sample 3 — method: RNA Bind-n-Seq; form: RNA; medium: in vitro; tested at: 365 nM; relative to: no-protein control; reading: higher = stronger binding
Target: RNA binding protein fox-1 homolog 2, RRM domain, GST-SBP tag (RBFOX2, Homo sapiens, UniProt O43251-10, residues 100-194)
Setting: natural RNA segment, single round, ends assumed
All sequences stand within: GGGAGUUCUACAGUCCGACGAUC … UGGAAUUCUCGGGUGCCAA
Construct (chain): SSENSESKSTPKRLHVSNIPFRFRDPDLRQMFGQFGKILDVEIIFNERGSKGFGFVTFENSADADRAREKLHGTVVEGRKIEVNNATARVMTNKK
Oligonucleotide | RBNS enrichment (R)
AAUGACUGGCAGACAAUAUAUGCAUGGACCUUGAUAUGGGUGGAUAGAUUAAGGUUGAACCUUAGACACAAUGUGUGUUGUUAGUUGUAGAGCAGCCAUAUGUGCCAUGG | 2.03
GCUUUUUCUCUAUUUAGACUGUUUUUGUACUUUACUAAUCUUUAAACUAUCAGGAAAAAAACCAAAACUUUAUACCAAUGAUUUAGUAAUUUUGAGGCAUAGGGUAGCUU | 0.779
AGAAACGAGACUUGGCGGCACCAUGAGAAUGGAGAGAGAGAGAGCAAAGAAAGAAACAGCCUUUAAAAGAACUUUCUAAGGGUGGUUUUUGAACCUCGCUGGACCUUGUA | 0.948
UUGAAAAAGCAACCCAGUCAGCUGACUUCCUCGUGCAAUGUGUUAAACUGUGAACUCUGCCCAUGUGUCAGGAGUGGCUGUCUCUGGUCUCUUCCUUUAGCUGACAAGGA | 0.622
GUUGAAAUCAGGGGUGCCCAGCAGAGCCCAUCAUUCUCACUGUCUUUGAAACAAAGCUGUACGGUUUGAUCGAUGAACGUAUUUAAAGCAUUUCAUGCAAUGACAAAGUG | 0.426
AUUCAGAAGUCAAAGAAAUUACAUGUUUGGGAUUGAUGAGUCUUUAGGGCAGAAGCCAGCUGCAGAAGCCACUUUGAUGUUACCCAAGCCACAGCGCUAGAUAAGCCUCA | 0.301
GAGACCCGGGUUGAUUUGUGCUAUCUUGGGUCUUUGGCUUAAAUUAAUAGAUUUGUUCUGUGUUUGAUUGCCAGCAUCCUCCAGACCCCUGAAUCAUCUAAAGCUAGGUC | 0.804
UCUGUAGUUAACAGAACACUGUAAUGUGCCUUGCAGCUUAGUAACUUGUAAUAAAUUCAAUUGAUAUAAUUCUGCCCUGAGUCAGCAAAUUUGUCUUUCUAGGGUUGAAG | 4.48
UUCACUCUCUUCCUCCCACCCCCAAGACUGAGUUUUGGGGGGCAAGGUGGAGAGAGCUGGCAACUACUGUGAGCAAGUCCCCUAGCCCCUGACCAGCCUCCUCCCAUGAC | 0.211

Sample 4 — method: competition protein-binding microarray; form: double-stranded DNA, one strand shown; medium: in vitro; tested at: 2 µM; with: Cbf1 competitor, 0.05 µM; reading: higher = stronger binding; all sequences stand within: … GTCTTGATTCGCTTGACGCTGCTG
Target: Phosphate system positive regulatory protein PHO4, full length, GST-tagged (PHO4, Saccharomyces cerevisiae, UniProt P07270, residues 1-312)
Setting: whole 60-bp probe, lowest competitor level
Residues (chain): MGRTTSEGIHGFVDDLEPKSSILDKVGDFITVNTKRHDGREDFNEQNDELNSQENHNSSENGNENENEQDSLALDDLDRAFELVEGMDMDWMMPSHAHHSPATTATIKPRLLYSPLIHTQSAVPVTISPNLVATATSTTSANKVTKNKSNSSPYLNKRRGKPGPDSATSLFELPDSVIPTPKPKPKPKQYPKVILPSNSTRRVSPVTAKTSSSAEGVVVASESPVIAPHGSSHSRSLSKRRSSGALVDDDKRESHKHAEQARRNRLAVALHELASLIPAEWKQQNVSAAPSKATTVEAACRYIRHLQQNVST
Oligonucleotide | fluorescence intensity [a.u.]
CAATAGCCGGGCTGGCACGCTACTAGAAGGCGGTTC | 6030
CTTTCCCGATCTTGTGCTGTGGGTGTAGCACATTTG | 6420
GAGACGCTTAAGCGACACGTGCCTGGCTTCTGCAGC | 14700
GAAGATCCAAGCCTGCACCTGACGGGTTCGAAAAAA | 4360
TTATTTTTTCAGTCGCTCGTGGTCGATCGCCAACTT | 7700
CTTTCCCGATCTTGTCACGTGTTTTTAGCACATTTG | 13800
AGCTCTAACAAAGTCAACGTGTAAGGCAGCAACTGG | 9400
CTTCTGTAAATTTGTCACTGCACTTGACGCGCCCCG | 3530
AAATATCTAAGCCATCACATGACAGCAAGACCCTTT | 6240
AAAAGAGGTTCGAGTCACGTGATGGAGATTACCCGC | 12000
ATAGAGCTGTATTCTGAAGACCTCTTGTAGAACATC | 2590
TTGGTGCTTTCTTTGCACGTTCTGCCAAAGTGTTTC | 11500
ATAGATAGATGGCCGAACGTGGAATGCCTCTATGGG | 10600
CTACCATTATGCAAAAGCGTGCTAAGAAGAACGAAA | 10400
GCCAGTCTGAGAAAGCACGCTGCTTGTGCTTGTTGG | 8690
AAACTGTGTATGTTACACGTGAAGCGAGGCTTGGAA | 11500
CTTCTGTAAATTTGAAGAGTGGGTGGACGCGCCCCG | 4000
CATACCCAACCTTTTCACGTGGCCTAAGATATTTGT | 14100
TTAGATTAAGTAGGACGCATGATGTTGAGCTCTTTT | 7080
TGGAGAAAGATTCACCACGTTCACTCAAGATCTTCA | 12400
CTTTTCATTAGGCTTCCTAATTATACCCATCTATGC | 3830
CATACCCAACCTTGTAACGTGGGTGAAGATATTTGT | 10400
AACAGATTCGGTGAGCTCGTGAGGTTTGAAGGCAGT | 6740
GTCTTGTCTCATTGCCCCGTGGGTGTCCCCACTTCA | 11700
AAAGCGGTAATTTGGAATGTGGGTGCAGATATCTAT | 6600
